Experimental data gathered from unrelated publications.
A part holds a random share of what one study measured. Values joined by “and” are separate records of one study, mostly repeats; a detail may differ.
UniProt Q16816, sequence (whole entry, looked up): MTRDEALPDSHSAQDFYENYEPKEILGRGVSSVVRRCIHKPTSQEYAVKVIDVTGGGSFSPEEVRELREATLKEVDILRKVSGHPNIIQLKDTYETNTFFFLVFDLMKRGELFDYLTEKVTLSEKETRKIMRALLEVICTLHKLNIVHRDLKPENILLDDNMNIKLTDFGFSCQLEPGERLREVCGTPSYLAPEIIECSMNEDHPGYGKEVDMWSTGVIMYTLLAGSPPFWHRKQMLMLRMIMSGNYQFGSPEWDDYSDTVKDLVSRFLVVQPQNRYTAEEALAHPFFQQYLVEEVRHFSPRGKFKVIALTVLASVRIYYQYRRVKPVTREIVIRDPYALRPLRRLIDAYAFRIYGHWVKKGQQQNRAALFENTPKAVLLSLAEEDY
UniProt Q12866, sequence (whole entry, looked up): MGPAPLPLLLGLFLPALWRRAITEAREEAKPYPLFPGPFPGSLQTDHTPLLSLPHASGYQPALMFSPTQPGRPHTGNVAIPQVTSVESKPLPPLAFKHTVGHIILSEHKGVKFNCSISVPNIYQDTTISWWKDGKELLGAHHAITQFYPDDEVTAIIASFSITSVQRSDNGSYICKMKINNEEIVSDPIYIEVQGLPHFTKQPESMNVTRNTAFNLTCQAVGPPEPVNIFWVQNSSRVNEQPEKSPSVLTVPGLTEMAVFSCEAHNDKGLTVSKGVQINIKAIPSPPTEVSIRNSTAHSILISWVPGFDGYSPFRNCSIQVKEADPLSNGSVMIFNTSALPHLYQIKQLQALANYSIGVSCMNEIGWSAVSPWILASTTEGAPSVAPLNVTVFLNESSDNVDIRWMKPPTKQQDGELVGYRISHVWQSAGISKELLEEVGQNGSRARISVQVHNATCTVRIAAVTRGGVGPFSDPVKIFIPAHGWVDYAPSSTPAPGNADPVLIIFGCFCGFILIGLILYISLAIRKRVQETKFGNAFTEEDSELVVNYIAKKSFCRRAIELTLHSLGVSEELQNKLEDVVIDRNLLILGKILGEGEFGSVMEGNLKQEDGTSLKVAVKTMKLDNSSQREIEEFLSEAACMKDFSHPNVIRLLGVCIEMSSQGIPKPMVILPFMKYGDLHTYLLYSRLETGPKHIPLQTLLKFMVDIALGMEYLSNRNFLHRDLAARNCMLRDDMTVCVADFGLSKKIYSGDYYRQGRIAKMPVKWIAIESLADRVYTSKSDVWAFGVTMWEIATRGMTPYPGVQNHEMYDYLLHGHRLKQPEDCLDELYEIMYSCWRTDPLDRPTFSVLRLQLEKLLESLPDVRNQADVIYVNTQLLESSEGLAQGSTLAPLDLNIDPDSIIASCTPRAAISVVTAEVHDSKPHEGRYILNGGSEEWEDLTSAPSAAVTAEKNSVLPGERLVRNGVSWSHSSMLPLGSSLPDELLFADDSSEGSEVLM
UniProt O95747, sequence (whole entry, looked up): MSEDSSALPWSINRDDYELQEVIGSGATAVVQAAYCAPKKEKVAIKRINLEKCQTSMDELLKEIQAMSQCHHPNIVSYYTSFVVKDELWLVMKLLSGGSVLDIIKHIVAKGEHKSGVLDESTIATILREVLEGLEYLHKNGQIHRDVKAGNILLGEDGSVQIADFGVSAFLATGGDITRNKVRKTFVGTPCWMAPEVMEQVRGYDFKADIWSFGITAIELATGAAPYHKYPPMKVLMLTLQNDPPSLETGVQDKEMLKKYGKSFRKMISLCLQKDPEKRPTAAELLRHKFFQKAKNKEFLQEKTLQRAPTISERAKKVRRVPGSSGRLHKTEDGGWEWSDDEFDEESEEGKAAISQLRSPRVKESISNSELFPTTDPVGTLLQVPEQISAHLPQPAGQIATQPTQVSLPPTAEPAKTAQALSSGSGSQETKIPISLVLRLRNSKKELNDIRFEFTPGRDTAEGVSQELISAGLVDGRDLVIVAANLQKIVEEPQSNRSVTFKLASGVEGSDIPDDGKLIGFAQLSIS
UniProt Q9P286, sequence (whole entry, looked up): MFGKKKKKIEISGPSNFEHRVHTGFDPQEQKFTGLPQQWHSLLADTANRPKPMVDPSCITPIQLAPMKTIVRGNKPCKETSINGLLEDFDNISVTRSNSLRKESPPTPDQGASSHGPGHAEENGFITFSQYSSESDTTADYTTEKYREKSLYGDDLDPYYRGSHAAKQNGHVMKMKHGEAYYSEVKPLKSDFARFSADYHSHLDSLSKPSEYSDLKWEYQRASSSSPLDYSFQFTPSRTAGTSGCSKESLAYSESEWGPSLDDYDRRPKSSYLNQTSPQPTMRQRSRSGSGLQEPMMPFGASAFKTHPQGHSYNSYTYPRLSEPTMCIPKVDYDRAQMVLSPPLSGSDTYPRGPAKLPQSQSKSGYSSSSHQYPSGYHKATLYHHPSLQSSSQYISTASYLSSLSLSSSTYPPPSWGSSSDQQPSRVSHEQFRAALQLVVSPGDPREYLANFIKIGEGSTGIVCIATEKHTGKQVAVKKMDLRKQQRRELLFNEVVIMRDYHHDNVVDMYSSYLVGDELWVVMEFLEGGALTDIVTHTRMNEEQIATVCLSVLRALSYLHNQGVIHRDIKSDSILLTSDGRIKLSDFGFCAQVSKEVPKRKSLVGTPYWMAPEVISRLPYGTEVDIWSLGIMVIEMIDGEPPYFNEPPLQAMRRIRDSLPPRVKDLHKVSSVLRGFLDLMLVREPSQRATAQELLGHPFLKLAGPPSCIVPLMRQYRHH
UniProt Q13237, sequence (whole entry, looked up): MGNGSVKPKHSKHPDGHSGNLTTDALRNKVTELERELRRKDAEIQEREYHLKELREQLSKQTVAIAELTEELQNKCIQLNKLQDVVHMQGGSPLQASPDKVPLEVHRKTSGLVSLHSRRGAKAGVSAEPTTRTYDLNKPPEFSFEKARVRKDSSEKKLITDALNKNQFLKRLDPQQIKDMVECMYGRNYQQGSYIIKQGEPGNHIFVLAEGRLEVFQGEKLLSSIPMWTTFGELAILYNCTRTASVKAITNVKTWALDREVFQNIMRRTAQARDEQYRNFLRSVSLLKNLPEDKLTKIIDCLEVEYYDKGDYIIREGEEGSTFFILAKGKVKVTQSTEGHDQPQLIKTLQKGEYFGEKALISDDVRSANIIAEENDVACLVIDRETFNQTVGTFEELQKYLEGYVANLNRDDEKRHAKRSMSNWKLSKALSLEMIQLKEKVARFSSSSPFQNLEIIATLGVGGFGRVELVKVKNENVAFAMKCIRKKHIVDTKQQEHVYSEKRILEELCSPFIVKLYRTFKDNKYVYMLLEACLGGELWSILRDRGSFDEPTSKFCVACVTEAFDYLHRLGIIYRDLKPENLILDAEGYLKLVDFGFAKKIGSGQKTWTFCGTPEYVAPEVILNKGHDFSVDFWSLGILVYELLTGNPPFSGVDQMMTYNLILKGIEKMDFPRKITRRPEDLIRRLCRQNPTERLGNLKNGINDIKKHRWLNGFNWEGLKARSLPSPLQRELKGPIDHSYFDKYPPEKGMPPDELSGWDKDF
UniProt Q08881, sequence (whole entry, looked up): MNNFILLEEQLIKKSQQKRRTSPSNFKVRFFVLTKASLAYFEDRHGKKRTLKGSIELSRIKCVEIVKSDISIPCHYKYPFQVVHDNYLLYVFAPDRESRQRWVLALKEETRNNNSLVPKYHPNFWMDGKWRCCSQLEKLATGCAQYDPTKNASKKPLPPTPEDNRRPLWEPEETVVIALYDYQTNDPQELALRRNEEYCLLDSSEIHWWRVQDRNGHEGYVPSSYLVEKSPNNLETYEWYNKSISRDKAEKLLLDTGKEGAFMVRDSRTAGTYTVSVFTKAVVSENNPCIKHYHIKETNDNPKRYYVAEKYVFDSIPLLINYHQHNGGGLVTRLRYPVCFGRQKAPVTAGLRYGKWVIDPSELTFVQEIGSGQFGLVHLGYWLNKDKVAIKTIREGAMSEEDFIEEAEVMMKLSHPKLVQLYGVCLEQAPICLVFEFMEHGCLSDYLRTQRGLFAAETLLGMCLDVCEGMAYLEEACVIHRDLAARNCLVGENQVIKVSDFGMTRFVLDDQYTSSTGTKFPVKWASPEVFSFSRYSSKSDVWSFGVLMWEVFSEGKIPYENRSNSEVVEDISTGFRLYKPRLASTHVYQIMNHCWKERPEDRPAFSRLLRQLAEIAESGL
UniProt Q13705, sequence (whole entry, looked up): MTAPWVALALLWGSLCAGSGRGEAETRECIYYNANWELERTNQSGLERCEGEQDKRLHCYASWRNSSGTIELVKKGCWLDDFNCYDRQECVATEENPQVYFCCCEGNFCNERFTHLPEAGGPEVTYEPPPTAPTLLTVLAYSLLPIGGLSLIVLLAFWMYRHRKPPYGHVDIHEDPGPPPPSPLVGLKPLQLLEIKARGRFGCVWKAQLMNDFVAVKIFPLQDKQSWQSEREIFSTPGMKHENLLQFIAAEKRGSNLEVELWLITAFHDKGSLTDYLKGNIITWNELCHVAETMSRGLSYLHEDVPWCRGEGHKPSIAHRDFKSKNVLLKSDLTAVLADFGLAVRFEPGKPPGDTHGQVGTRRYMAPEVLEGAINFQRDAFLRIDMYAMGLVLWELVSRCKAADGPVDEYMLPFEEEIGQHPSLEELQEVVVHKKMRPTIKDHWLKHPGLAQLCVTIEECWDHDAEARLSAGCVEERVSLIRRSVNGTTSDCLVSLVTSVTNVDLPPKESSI

Sample 1
Host: human
Medium: microsomes or S9
Concentration: 2 µM
Time: 0.5 h
With `O=c1c2sccc2ncn1-c1ccc(F)c(Cl)c1` the remaining compound was 31.1%.
With `O=C(NCC(F)(F)F)c1nnn(-c2ccc(NS(=O)(=O)c3cccnc3)cc2)n1` the remaining compound was 86.1%.
With `Cc1cnc(C2CC2)n1CCNC(=O)c1ccccn1` the remaining compound was > 100%.
For `CC(C)NC(=O)Nc1ccc(O)c(-c2nc(-c3nnc[nH]3)no2)c1`, the remaining compound was 69.3%.

Sample 2
Organism: Sarcocystis neurona
Observed: parasite growth
Concentration: concentration not given
Setting: first screen
Reference: untreated
`O=C1c2c(O)cc(O)cc2OC(c2ccc(O)c(O)c2)C1O` (stereo not drawn): “log2 fold change” -0.15.
Under “log2 fold change”, `CN(C)CCC=C1c2ccccc2CCc2ccccc21.Cl` is recorded as -0.22.
`COc1ccccc1N1CCN(CCCNc2cc(=O)n(C)c(=O)n2C)CC1.Cl`: “log2 fold change” 0.0135.

Sample 3
SMILES: CN(C(=O)c1ccn2ncc(-c3ccc(C(N)=O)cc3)c2c1)c1ccc(C#N)cn1
Organism: Cryptosporidium parvum
Method: time-kill
Cells: HCT-8
Strain: nanoluciferase-expressing
Reference: DMSO control
20 µM, 8 h — luminescence remaining: 82.2% and 96.3%.
For 0.00305 µM, 24 h: luminescence remaining read 92.1% and 98.6%.
It gave 98% and 99.4% and 90.3% and 97.4% and 91.4% and 90.1% and 103% and 91.2% for luminescence remaining (0.7407 µM, 0 h).

Sample 4
SMILES: COc1ccc2c(c1)O[C@@H](c1ccc(OC)c(OC)c1)C[C@H]2NC(=O)C1(c2ccc3c(c2)OC(F)(F)O3)CC1
Observed: cell-free assay
Method: competition with immobilised ligand
Concentration: 1 µM
FLT3 (Homo sapiens, UniProt P36888, K663Q) — remaining binding: 100%.
The remaining binding was 90% (ALK (Homo sapiens, UniProt Q9UM73, L1196M)).
EIF2AK1 (Homo sapiens, UniProt Q9BQI3) — remaining binding: 98%.
Tyrosine-protein kinase ABL1, non-phosphorylated (ABL1, Homo sapiens, UniProt P00519, H396P) — remaining binding: 85%.
For PHKG1 (Homo sapiens, UniProt Q16816): remaining binding read 100%.
It gave 92% for remaining binding (GRK4 (Homo sapiens, UniProt P32298)).
It gave 75% for remaining binding (PAK5 (Homo sapiens, UniProt Q9P286)).
OXSR1 (Homo sapiens, UniProt O95747) — remaining binding: 90%.
ACVR2B (Homo sapiens, UniProt Q13705) — remaining binding: 96%.
It gave 86% for remaining binding (ITK (Homo sapiens, UniProt Q08881)).
The remaining binding was 81% (HASPIN (Homo sapiens, UniProt Q8TF76)).
It gave 96% for remaining binding (PRKG2 (Homo sapiens, UniProt Q13237)).
The remaining binding was 93% (Tyrosine-protein kinase ABL1, non-phosphorylated (ABL1, Homo sapiens, UniProt P00519, F317I)).
MAP3K12 (Homo sapiens, UniProt Q12852) — remaining binding: 80%.
The remaining binding was 95% (MERTK (Homo sapiens, UniProt Q12866)).

Sample 5
Compound: CC(C)n1cnc(-c2ccc(F)cc2)c1-c1ncc(C(=O)Nc2ccc(N3CCN(C)CC3)cc2)[nH]1
Method: phase 2a trial
The “patients with TEAE” was 0% (patients with idiopathic pulmonary fibrosis; 30 mg once daily, skin papilloma, maximum intensity grade 5).
It gave 0% for “patients with TEAE” (idiopathic pulmonary fibrosis patients; oral, 30 mg once daily, GLDH increased, grade 2).
idiopathic pulmonary fibrosis patients; oral, dose not given, ESR increased, grade 3, all arms — “patients with TEAE”: 0%.
It gave 0% for “patients with TEAE” (patients with idiopathic pulmonary fibrosis; 30 mg once daily, skin papilloma, maximum intensity grade 1).

Other studies, line by line
`O=C1CCC(N2Cc3cc(C4CCN(Cc5ccccc5)CC4)ccc3C2=O)C(=O)N1` (stereo not drawn): “proliferating CD8+ Teff cells” 88.4% and 57.2% and 88.1% and 86.6% and 85.9% and 46.2% (human Treg:Teff co-culture; concentration not given, Treg suppression).

Excerpt of the above (sample 5):
The “patients with TEAE” was 0% (patients with idiopathic pulmonary fibrosis; 30 mg once daily, skin papilloma, maximum intensity grade 5).
It gave 0% for “patients with TEAE” (idiopathic pulmonary fibrosis patients; oral, 30 mg once daily, GLDH increased, grade 2).
idiopathic pulmonary fibrosis patients; oral, dose not given, ESR increased, grade 3, all arms — “patients with TEAE”: 0%.
It gave 0% for “patients with TEAE” (patients with idiopathic pulmonary fibrosis; 30 mg once daily, skin papilloma, maximum intensity grade 1).
